# Measured values pooled from the literature.
# A part holds a random share of what one study measured. Positions count from the first letter of the parent shown.

# Series 1
# Target: Fragile X messenger ribonucleoprotein 1, C-terminal low-complexity region (Fmr1, Mus musculus, UniProt P35922)
# Technique: RNA Bind-n-Seq
# Molecule type: RNA
# Medium: in vitro
# Concentration: 200 nM
# Setting: whole 134-nt RNA, ends assumed
# With: 150 mM LiCl
# Relative to: input library
# Direction: higher = stronger binding
# Each molecule: 7-deaza-guanosine replaces G
# All sequences stand within: GGGAGUUCUACAGUCCGACGAUC … UGGAAUUCUCGGGUGUCAAGG
Strand,log2 enrichment
CCUGUGCUACACAUCGUAUGUACCGAAUCGGCCCCCCCGGCCCCCCCGGGGCCCCCCCGGAAAGUAUUAUGUUACGCCGUUCGGAUCUGC,1.23
UAACUUUAGUGGAGGAUCUGAUGGAUAUGGCAGUGGACGUGGAUUUGGGGAUGGCUAUAAUGGGUAUGGAGGAGGACCUGGAGGUGGCAA,0.32
CACAGACAACACGCACCCACACAGACACAGAGGGAAGGGGUGGGGAUGGGGACAGGGUGCACAGCAGGGCGGGGUAGGACCCCAGCCCCU,-0.972
CAAGUCCUGUGCUACACAUCGUAUGUACCGAAUCGGCCCGGGGCCCGGGCCCGGGGAAAGUAUUAUGUUACGCCGUUCGGAUCUGCACUU,-2.11
UCCCAAUGCUCGGAGGAAGCCCAAGGGCAGCCCUCGUGUACCUGAUGCCAAGAAGCCUAAACCCAAGAAAGUAGCUCCCCUGAAAAUCAA,1.46
UCAAGUCCUGUGCUACACAUCGUAUGUACCGAAUCGGGAGGGAGGGUUUUUGGGAAAGUAUUAUGUUACGCCGUUCGGAUCUGCACUUCC,-0.684
UGCGUGCUUGUGUCCUGGAGCUGGAAGAGCGGCUGAGCACGCAGGAGGGCUUGGUGCAAGAGCUUCAGAAAAAACAGGUGGAAUUGCAGG,-0.485
AGUCCUGUGCUACACAUCGUAUGUACCGAAUCGGGAAAAGGGGAAAAGGAAAAGGGGAAAGUAUUAUGUUACGCCGUUCGGAUCUGCACU,-0.534

# Series 2
# Target: Hepatocyte nuclear factor 3-beta, forkhead domain (FOXA2, Homo sapiens, UniProt Q9Y261, residues 142-269)
# Technique: protein-binding microarray
# Molecule type: double-stranded DNA, one strand shown
# Medium: in vitro
# Concentration: not given
# Setting: k-mer, scored over probes, only values ≥0.25
# Direction: higher = stronger binding
# Target sequence (chain): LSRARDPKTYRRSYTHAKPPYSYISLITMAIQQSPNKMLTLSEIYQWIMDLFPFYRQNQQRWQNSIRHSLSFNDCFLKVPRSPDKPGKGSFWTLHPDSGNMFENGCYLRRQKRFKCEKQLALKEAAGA
Strand,E-score
AAAACAAT,0.271
ATTTGTTG,0.254
TAGTAACA,0.351
ATATAGTG,0.338
CTATTGTA,0.307
ACAATAAC,0.272
ATAACAGC,0.256
GAACAAAA,0.256

# Further values, each from its own experiment
# P1: viral docking peptide; YKVKRRLVFGADD; partner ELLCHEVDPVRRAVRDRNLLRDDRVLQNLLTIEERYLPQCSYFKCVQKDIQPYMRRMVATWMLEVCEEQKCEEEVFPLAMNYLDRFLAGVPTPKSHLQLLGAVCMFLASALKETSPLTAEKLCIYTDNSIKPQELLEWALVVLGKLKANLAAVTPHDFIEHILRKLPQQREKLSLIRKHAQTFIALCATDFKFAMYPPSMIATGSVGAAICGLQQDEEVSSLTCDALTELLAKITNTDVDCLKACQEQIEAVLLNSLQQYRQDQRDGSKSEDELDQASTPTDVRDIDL
Substance,target,assay,system,conditions,how to read,measurement,result
P1 G10N,"CCND2, cyclin fold, Cln2 fusion (human)","yeast growth competition, sequencing",yeast,strong parent motif,"relative to: not given, higher = stronger binding",normalised enrichment score,1.68
NFFHASLAY,"HLA class I histocompatibility antigen, A alpha chain, allele A*25:01 (Homo sapiens, UniProt P04439)",peptide-MHC binding,peptide,concentration not given,,binding,inactive

# Some of these lines once more (series 2):
Strand,E-score
ATAACAGC,0.256
ATATAGTG,0.338
